{"data": "Experimental data gathered from unrelated publications", "target": "DNA-dependent protein kinase catalytic subunit (PRKDC, Homo sapiens, UniProt P78527)", "note": "Several values in a cell are separate wells, animals, samples, runs or records.", "sequence of UniProt P78527 (whole entry, looked up)": "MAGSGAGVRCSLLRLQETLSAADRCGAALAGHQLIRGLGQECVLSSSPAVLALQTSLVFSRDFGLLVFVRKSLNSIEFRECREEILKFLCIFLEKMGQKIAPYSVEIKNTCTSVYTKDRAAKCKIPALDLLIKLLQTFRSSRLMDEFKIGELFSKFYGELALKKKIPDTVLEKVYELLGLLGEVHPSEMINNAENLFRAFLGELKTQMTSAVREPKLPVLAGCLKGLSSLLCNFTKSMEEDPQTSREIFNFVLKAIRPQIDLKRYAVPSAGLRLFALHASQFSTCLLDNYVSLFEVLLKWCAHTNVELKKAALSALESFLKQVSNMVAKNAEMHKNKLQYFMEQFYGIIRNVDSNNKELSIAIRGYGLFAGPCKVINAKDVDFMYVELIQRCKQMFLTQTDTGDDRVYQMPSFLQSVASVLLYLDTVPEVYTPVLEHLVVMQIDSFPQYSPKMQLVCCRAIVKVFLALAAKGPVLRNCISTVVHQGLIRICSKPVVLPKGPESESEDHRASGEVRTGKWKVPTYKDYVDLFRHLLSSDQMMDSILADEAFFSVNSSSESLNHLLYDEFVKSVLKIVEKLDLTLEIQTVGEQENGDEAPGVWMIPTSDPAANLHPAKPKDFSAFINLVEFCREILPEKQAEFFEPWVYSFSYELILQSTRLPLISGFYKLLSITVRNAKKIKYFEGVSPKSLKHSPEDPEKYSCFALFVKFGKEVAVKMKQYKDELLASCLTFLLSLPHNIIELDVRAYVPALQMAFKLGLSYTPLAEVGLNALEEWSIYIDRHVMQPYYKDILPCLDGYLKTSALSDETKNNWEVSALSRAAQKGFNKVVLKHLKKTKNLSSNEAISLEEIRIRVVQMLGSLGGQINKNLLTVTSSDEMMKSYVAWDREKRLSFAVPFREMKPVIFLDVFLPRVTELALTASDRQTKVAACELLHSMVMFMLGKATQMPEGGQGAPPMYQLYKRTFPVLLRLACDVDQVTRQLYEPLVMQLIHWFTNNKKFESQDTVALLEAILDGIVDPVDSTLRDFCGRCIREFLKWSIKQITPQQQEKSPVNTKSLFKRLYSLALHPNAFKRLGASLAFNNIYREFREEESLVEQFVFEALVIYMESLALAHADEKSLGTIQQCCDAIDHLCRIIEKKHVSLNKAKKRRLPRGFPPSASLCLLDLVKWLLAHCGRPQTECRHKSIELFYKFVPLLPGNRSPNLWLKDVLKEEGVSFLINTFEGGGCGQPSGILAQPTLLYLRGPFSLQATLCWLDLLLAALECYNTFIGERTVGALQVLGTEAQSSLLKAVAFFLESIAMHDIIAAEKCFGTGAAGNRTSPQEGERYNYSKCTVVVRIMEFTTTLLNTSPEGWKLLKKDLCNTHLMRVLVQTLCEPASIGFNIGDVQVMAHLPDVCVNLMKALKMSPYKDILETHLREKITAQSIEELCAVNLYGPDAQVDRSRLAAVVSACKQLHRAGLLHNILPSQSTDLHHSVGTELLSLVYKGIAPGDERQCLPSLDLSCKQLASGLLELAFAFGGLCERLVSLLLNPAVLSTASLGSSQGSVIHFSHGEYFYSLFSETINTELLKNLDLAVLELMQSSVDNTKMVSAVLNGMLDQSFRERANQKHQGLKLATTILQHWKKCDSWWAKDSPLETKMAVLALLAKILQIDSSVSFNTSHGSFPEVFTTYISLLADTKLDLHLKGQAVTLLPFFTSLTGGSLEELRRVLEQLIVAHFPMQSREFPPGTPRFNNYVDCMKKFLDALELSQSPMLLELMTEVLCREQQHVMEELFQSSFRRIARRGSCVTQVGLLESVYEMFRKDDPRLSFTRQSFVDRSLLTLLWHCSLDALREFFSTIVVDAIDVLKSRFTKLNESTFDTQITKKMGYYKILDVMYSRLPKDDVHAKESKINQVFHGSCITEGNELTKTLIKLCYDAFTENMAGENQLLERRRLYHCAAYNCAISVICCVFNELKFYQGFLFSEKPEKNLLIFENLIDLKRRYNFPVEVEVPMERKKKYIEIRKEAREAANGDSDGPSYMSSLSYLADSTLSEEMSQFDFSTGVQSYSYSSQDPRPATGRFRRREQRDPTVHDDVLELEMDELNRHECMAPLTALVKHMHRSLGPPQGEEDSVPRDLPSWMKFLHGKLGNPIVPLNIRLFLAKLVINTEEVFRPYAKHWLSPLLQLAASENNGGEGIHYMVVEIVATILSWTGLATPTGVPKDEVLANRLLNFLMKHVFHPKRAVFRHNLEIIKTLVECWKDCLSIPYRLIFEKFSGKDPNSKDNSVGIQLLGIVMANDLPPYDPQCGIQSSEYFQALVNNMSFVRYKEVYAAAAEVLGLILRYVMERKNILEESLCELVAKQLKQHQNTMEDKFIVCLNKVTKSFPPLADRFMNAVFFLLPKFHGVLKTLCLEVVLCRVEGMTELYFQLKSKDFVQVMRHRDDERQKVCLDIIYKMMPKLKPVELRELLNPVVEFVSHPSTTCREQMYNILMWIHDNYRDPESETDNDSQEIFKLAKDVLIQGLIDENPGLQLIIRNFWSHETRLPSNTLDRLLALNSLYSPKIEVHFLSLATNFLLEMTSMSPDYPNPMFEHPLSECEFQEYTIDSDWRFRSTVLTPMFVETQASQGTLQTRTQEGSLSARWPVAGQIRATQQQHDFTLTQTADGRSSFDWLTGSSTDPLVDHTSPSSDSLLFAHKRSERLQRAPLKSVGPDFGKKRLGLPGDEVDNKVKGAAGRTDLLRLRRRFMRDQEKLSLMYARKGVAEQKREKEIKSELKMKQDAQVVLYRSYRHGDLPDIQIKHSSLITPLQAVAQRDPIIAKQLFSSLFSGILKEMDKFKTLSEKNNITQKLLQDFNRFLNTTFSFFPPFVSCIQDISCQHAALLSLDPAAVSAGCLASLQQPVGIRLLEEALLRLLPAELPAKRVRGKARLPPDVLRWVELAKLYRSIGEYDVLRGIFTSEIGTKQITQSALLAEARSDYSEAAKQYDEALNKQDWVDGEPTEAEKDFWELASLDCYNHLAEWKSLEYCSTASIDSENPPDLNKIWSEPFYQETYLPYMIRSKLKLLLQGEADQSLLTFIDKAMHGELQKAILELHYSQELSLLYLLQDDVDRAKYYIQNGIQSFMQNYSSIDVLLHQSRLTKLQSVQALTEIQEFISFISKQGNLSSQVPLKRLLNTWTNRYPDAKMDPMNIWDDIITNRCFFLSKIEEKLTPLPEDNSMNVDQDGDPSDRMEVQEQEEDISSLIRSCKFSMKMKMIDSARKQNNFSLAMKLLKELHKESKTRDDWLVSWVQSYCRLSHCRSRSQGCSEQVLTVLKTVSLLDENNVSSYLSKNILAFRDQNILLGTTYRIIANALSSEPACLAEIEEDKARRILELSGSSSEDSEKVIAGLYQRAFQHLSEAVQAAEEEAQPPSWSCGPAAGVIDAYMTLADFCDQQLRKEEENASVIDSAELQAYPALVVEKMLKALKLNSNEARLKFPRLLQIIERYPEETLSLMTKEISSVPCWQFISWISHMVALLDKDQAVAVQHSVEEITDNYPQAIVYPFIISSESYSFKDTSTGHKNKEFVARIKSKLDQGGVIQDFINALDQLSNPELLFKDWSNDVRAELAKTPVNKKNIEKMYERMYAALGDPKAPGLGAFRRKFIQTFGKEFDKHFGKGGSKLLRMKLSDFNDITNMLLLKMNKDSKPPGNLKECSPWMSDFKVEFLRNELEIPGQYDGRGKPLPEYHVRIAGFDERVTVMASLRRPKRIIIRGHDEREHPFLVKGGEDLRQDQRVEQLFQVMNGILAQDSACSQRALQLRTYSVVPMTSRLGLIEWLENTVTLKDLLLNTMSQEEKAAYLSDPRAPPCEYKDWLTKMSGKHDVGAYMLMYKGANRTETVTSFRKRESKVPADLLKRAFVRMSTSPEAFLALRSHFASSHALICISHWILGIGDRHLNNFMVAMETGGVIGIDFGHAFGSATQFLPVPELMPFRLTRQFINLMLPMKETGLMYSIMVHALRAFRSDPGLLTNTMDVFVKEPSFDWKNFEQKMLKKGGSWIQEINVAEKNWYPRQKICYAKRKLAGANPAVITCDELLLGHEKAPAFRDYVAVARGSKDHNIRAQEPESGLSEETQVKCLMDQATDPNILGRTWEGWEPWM"}
{"assay": "enzyme activity, inhibitor, radiometric", "setting": "1 µM", "quantity": "remaining activity", "result": "37%", "SMILES": "CC(=O)N1c2ccc(-c3ccc(CNC(=O)c4cn5cc(-c6cnc(N)nc6)nc(N6CCOCC6)c5n4)cc3)cc2CC[C@@H]1C"}
{"assay": "enzyme activity, inhibitor", "setting": "0.1 µM", "quantity": "inhibition", "result": "18%", "SMILES": "CN1CCN(Cc2ccc(-c3ccc(CO[C@H]4CCC[C@@H]4NC(=O)c4cc(-c5cnn(C)c5)cnc4N)cc3)cc2)CC1"}
{"assay": "enzyme activity, inhibitor", "setting": "1 µM", "quantity": "inhibition", "result": "-3%", "SMILES": "CN1CC[C@@H](COc2cnc(C#N)cc2-c2ccn3nc(NC(=O)C4CC4)cc3c2)C1"}
{"assay": "kinase activity", "setting": "0.1 µM, together with: ATP at Km", "quantity": "inhibition", "result": "11.2%", "SMILES": "CCn1cc(C(=O)O)c(=O)c2c(N)c(F)c(NC3CCCCC3)cc21"}
{"assay": "enzyme activity, inhibitor", "setting": "1 µM", "quantity": "inhibition", "result": "6%", "SMILES": "Cc1nc2c(F)cc(-c3nc(Nc4ccc(CNC(=O)CCCCCCC(=O)NO)cc4)ncc3F)cc2n1C(C)C"}
{"assay": "enzyme activity, inhibitor, FRET", "setting": "1 µM", "quantity": "inhibition", "result": "-1%", "SMILES": "C[C@H]1CN(C(=O)c2cn(-c3ccnc(N)n3)c3cc(C#CC4(O)CCCCC4)ccc23)CCN1"}
{"assay": "enzyme activity, inhibitor", "setting": "10 µM", "quantity": "activity vs control", "result": "88%", "SMILES": "O=C(Cc1ccc(OCc2ccccc2)cc1)NC1(C(=O)O)CCN(C(=O)c2ccc(-c3cccc(Cl)c3)cc2)CC1"}
{"assay": "probe labelling, inhibitor, KiNativ chemoproteomics", "test system": "MOLT-4", "setting": "1 µM", "quantity": "inhibition", "result": "-8.55%", "SMILES": "CS(=O)(=O)Nc1cccc(-c2csc3cnc(Nc4ccc(N5CCN(CCCCCOc6cccc7c6C(=O)N(C6CCC(=O)NC6=O)C7=O)CC5)cc4)nc23)c1 (stereo not drawn)"}
{"assay": "kinobead competition pulldown", "test system": "HEK293/HCT116 lysate mixture", "setting": "10 µM, 1 h, 4 °C", "how to read": "lower = stronger competition", "quantity": "log2 LFQ intensity", "result": "28.5 and 28.4", "SMILES": "N[C@H]1CC[C@H](Nc2nccc(-c3cccnc3Oc3ccc(NC(=O)NC4CC4)c4ccccc34)n2)CC1"}
{"note": "Excerpt of the above:"}
{"assay": "kinase activity", "setting": "0.1 µM, together with: ATP at Km", "quantity": "inhibition", "result": "11.2%", "SMILES": "CCn1cc(C(=O)O)c(=O)c2c(N)c(F)c(NC3CCCCC3)cc21"}
